{"data": "Experimental data from different studies", "note": "Numbered parts are unrelated; each lists some results of a single study."}
{"data": "Sample 1", "target": "RNA binding protein fox-1 homolog 2, RRM domain, GST-SBP tag (RBFOX2, Homo sapiens, UniProt O43251-10, residues 100-194)", "method": "RNA Bind-n-Seq", "molecule type": "RNA", "medium": "in vitro", "tested at": "365 nM", "setting": "natural RNA segment, single round, ends assumed", "baseline": "no-protein control", "reading": "higher = stronger binding", "constant ends, left off below": "GGGAGUUCUACAGUCCGACGAUC … UGGAAUUCUCGGGUGCCAA", "Residues (chain)": "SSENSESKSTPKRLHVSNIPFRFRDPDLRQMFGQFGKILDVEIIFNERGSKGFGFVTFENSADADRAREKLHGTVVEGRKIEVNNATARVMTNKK"}
{"Strand": "ACCAACACGAGGUGUUUGGUCUGCUUCCAUUCUCUUCUGUGUAGUGCCUGGUUUAUUUAACUAAUUAAUACCUCCUCUGUUGAUGAGCUAUUGAGAGUUGCAGUGUUUUA", "RBNS enrichment (R)": 0.365}
{"Strand": "UAUUCUGCAAACUUGGUAGGCUGUUGGAUGUUAUAUUGCCCAUGUGCUUUACAGUGGGCAAUGUGAGAUGUCUCAGAAUGAAACGGUGCAUCUUUCAGGGCAGAAGAGCA", "RBNS enrichment (R)": 5.45}
{"Strand": "CGCCUCCGCCUCAGCGCACGCCUCUGCCUCCUUCCUUCUCCAGCCUCGGCCCUCCCUUCCUUCCUCUGCCUGCUGGGCAGGGACCCACAGUGGCCAGCGGCCUUGGGGAG", "RBNS enrichment (R)": 0.872}
{"Strand": "CUGGAAAGAACUGAGGCCAGACGAUUUCUGUGUUUGUCUCUUUGGCUUUUGUGUUAUAAGGAGGCAGGCCUUUCGAGGCCAUCUUACAUUGUUUGGUUCCAGAAAACCAA", "RBNS enrichment (R)": 0.309}
{"Strand": "GCCCUGCCAUCCCUUCUGUCUGCCAUGAGAGGGACUCUCUGAGUGUCGCCUGGCCCCACGUGUGGUGUUUUGUGUGUUCCUGCCUGGCCAAGGGAGGUGCCAAUGCUGGG", "RBNS enrichment (R)": 2.63}
{"Strand": "GACAUUACGUUCAAGUGGGCCUCCUGGAACUUAAGAACAAGCACCUCUCCUGUCCCCUUCUGUGUGCACAUAGGUCCAUAGGCUCAUUAGAGGGAUGAGAGUUCCCAUUA", "RBNS enrichment (R)": 0.413}
{"Strand": "UGCAGACCUUUACCUGUGAGCCCCUAGGCCAAGGCUGUAGCAUUAAAUGACUAUUUAUUCUUCUGCCCCCCUCUAGAGCACUCUUCUUGGCCAGACCCUCUGUCCAAGGC", "RBNS enrichment (R)": 0.258}
{"Strand": "UAACACAUUAGGAUUGUGGGACACAAGAUCCUCUCUGAACCUCCUGGUUAAGGAACGUUCCUGCAAACAUUCAAGUAGACCUUCUAUAACAGACUGCAGCGUGCAUGGCC", "RBNS enrichment (R)": 1.01}
{"data": "Sample 2", "target": "Hepatocyte nuclear factor 3-alpha (Foxa1, Mus musculus, UniProt P35582, residues 1-468, full length assumed)", "method": "EMSA with sequencing", "molecule type": "double-stranded DNA, one strand shown", "medium": "in vitro", "tested at": "10 and 20 nM", "setting": "whole designed probe, mean of two concentrations, ends assumed", "baseline": "negative control set to 0", "reading": "higher = stronger binding", "constant ends, left off below": "GTGAGCGGTGCCCATTGATGGGGAAC … TTTCACTGGGATCGTGGGGAC", "Target sequence (chain)": "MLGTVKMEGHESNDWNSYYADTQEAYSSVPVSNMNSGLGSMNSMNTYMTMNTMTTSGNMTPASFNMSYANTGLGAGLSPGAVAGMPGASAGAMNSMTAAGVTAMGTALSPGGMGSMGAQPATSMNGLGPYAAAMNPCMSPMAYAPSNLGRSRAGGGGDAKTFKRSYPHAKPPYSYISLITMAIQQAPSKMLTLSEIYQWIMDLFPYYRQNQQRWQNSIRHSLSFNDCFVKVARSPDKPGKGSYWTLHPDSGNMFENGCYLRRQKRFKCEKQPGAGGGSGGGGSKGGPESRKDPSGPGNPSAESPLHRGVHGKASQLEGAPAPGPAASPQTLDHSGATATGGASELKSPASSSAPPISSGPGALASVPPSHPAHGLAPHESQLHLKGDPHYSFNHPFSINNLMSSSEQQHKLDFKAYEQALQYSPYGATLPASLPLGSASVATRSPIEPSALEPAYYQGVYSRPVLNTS"}
{"Strand": "AAAGAAAGCAGCTCACTGGGTGAAGGACCTTGAGAAAGAGATGAACATTTCCTCTCTTGAGACACAGGACAAACATGCTCACGCCTGAGCTCGGCAAACAAGGACTTCGGTGCCTGCCTACGGCGCCATTGCGCCCTCTAGTGGCTGCTGAGGAACCGCTGTCCAGCCCGAAGCTCACAGAGCCCCGTTCAGG", "normalised bound fraction [ratio]": 0.0785}
{"Strand": "AGATGTAAAACAAAATGGATGTAGACAGCCGATTGTAGACGTAAAGCAAAATGGGTGTAGACAGCTAATTGACTCAACCATACTCTGGGCATGTATTTACTCAATGCTACAATGGGCTGAGTCATGCTCGAGGTGCTGGAGAGATTTCTGCCAAGAAAAGAGAGAAAAACCCCTGTCCTCCCACATCTGACGC", "normalised bound fraction [ratio]": 0.281}
{"Strand": "TCATGAAAGGCTTTGCATGCCATTTTAACAAGTACGGGCTTTATCTTAACCCTCTAGGAAACAGGGAGGCACATGAACACCCTAAGTAGGAAAGTAATTTGTTACTTCTAATTTGTGTTTTAGAAAGGTTCTGGAGCAGTCTGGAAGATGTAATGGTTGCTTGTCAGCTCATGAGCTGGTGGGGTTGGCTGCT", "normalised bound fraction [ratio]": -0.0842}
{"Strand": "AGGCACAAGGTATGAATCACTAAGAATCTAGCAGCAGCTCTAGAAGCCTCCAAAGATAATTGCACTTCCCCAACAGGGGGACGGGGGTGGAGTGTAATTTTGAAAGAACAGTGGATGGCCTAAATCAGTATGTGTCACTCTTTGTAAAGAGCCACAAGTGTTTGACTAGGGAAAAAGGAAAAGAGGCGAGAGT", "normalised bound fraction [ratio]": 0.0454}
{"Strand": "GCACCACTCAGCCCCTCCTAGTCCGCTGGAGAAAGTGGCTGAGGGGGTGGTGGGGGATAATTGCATTTCCAAAGTCCGGGCAATCAGCCAATGTAATCTGGCACCTGCATCACTGTGTGGGCTCTCTAGGCAACAGGTAAAATACATCAAATACACACAATTTCCTGACATTCCAATGCATTTCTGCGTGAGC", "normalised bound fraction [ratio]": 0.00277}
{"data": "Sample 3", "target": "Histone acetyltransferase KAT6A, winged helix 1, GST fusion (KAT6A, Homo sapiens, UniProt Q92794, residues 1-85)", "method": "protein binding microarray", "molecule type": "double-stranded DNA, one strand shown", "medium": "in vitro", "tested at": "not given", "setting": "8-mer, flanks averaged, mean of 2 arrays, mostly near background", "baseline": "not given", "reading": "higher = stronger binding", "Construct (chain)": "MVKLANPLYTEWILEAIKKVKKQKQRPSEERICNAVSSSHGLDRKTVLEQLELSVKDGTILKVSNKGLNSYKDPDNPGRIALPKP"}
{"Strand": "AGGGTTAA", "E-score": -0.162}
{"Strand": "CGAGGTGC", "E-score": 0.0937}
{"Strand": "GCAGATCA", "E-score": -0.0576}
{"Strand": "ATCCCCGG", "E-score": 0.221}
{"Strand": "AGTCTATC", "E-score": -0.134}
{"Strand": "AAGCATAG", "E-score": -0.148}
{"Strand": "AGACGAGA", "E-score": -0.102}
{"Strand": "CAACCTAA", "E-score": -0.158}
{"Strand": "GATGCCAC", "E-score": -0.191}
{"Strand": "TAGATTGA", "E-score": 0.0643}
{"Strand": "AAGAGAAG", "E-score": -0.169}
{"Strand": "GAGGGCCC", "E-score": -0.071}
{"Strand": "AAGATGGA", "E-score": -0.0654}
{"Strand": "ATATGGGG", "E-score": -0.0699}
{"Strand": "GAAGATCC", "E-score": -0.127}
{"Strand": "TAACGGTA", "E-score": 0.0491}
{"data": "Mixed results"}
{"Substance": "MBD3 (Homo sapiens, UniProt O95983)", "target or system": "GATAD2B (Homo sapiens, UniProt Q8WXI9)", "assay": "cross-linking MS", "system": "cell fractions", "setting": "added: DSSO", "endpoint": "cross-linked residues", "result": "K92 to K193"}
{"Substance": "PhoQ, residues 284 288 289 292 302 303 NLSRDF", "target or system": "PhoP, residues 12 14 15 18 19 LHATL (Escherichia coli, UniProt P23836)", "assay": "Sort-seq, item: YFP reporter", "system": "E. coli", "setting": "PhoQ-PhoP variant library, added: 10 µM Mg2+", "how to read": "baseline: high Mg2+ state, higher = stronger signaling", "endpoint": "fold induction", "result": 1}
{"Substance": "YWHAQ (Homo sapiens, UniProt P27348)", "target or system": "YWHAH (Homo sapiens, UniProt Q04917)", "assay": "cross-linking MS", "setting": "hits only", "endpoint": "interaction screen", "result": "cross-linked"}
{"Substance": "SURF6 (Homo sapiens, UniProt O75683)", "target or system": "DDX54 (Homo sapiens, UniProt Q8TDD1)", "assay": "cross-linking MS", "system": "cell fractions", "setting": "added: DMTMM", "endpoint": "cross-linked residues", "result": "E316 to K848"}
{"note": "Excerpt of the above (sample 1):"}
{"Strand": "GCCCUGCCAUCCCUUCUGUCUGCCAUGAGAGGGACUCUCUGAGUGUCGCCUGGCCCCACGUGUGGUGUUUUGUGUGUUCCUGCCUGGCCAAGGGAGGUGCCAAUGCUGGG", "RBNS enrichment (R)": 2.63}
{"Strand": "UAACACAUUAGGAUUGUGGGACACAAGAUCCUCUCUGAACCUCCUGGUUAAGGAACGUUCCUGCAAACAUUCAAGUAGACCUUCUAUAACAGACUGCAGCGUGCAUGGCC", "RBNS enrichment (R)": 1.01}
